Assay results of several laboratories.
Protocols differ between the studies behind these lines. Values joined by “and” are separate records of one study, mostly repeats; a detail may differ. ± gives the spread as reported.

Structure (SMILES) | test | system | setting | how to read | measurement | value
FC(F)(F)Oc1cccc(-c2cnc3ccc(-c4ccncc4)nn23)c1 |  | MDA-MB-231 xenograft, NSG mouse | oral, 10 mg/kg daily, day 5 | higher = larger tumour | tumour size | 0.04 a.u. and 0.0506 a.u. and 0.0907 a.u. and 0.0557 a.u. and 0.0245 a.u.
N#C/C(=C\C1CC1)c1ccncc1 |  |  | pH 7.4 |  | β-elimination rate constant | 0.058 min⁻¹
O=P(O)(O)C(Cl)(Cl)P(=O)(O)O |  | mouse, subarachnoid haemorrhage, hippocampal fissure | dose not given, day 7, compound-treated | relative to: total area | GFAP-positive area | 7.79% and 6.64%
O=C(O)c1cc(O)c2cccc(O)c2n1 | binding, MIDAS equilibrium dialysis LC-MS | A2AR-BRIL thermostabilized | concentration not given | relative to: no-protein control | log2 fold change | 0.167
Cn1cc(Nc2nccc(-c3ccc4c(c3)CN(C3COC3)CC[C@H]4NC(=O)c3cn(C(C)(C)C)nn3)n2)cn1 | item: Dendritic Cell Maturation | splenic B cells, mouse | in vivo, 30 mg/kg, IgD-activated B cells | relative to: vehicle, positive = activation | pathway activation z-score | 3.41
C=CCn1c(=O)c2cnc(Nc3ccc(N4CCN(C)CC4)cc3)nc2n1-c1ccc2c(n1)[C@@](O)(CC)CC2 |  | BALB/c nude mouse, BxPC-3 xenograft | oral, 60 mg/kg, 1 d on 6 d off ×4, day 28 | relative to: vehicle | tumour volume | 68.3%
CCOC(=O)C1=CCCC[C@H]1S(=O)(=O)Nc1ccc(F)cc1Cl | flow cytometry | mouse, acute lung injury, lung | dose not given |  | TLR4 expression reduction | 31%
Oc1ccc(Br)cc1C=NCCN1CCOCC1 | FRAP |  | 200 µM |  | ferric reducing power | 44.6%
C[C@H](Oc1ccc(Br)cc1-c1ccon1)C(=O)O | peak grip force, handgrip dynamometry | healthy human | 400 mg, SAD |  | difference from placebo | 0.882 kg
COc1ccc(F)cc1C(=O)NCc1ccc(-c2nn([C@@H](C)C(F)(F)F)c(N)c2C(N)=O)cc1 |  | CLL/SLL patients | dose not given, at least prior PI3K inhibitor |  | overall response rate | 60%
C[N+](C)(C)CCOC(N)=O | field potential oscillations | mouse, hippocampal slice CA1 stratum pyramidale | 20 µM | relative to: baseline | gamma-band power | 14 fold
C[C@@H](O)CCOC(=O)C[C@@H](C)O |  | human | oral drink, dose not given, 240 min post dose, median, all participants |  | plasma NEFA | 0.2 mM
NCC(=O)Nc1cncc(-c2nn3c(=O)cc(N4CCNCC4)nc3s2)c1 | ADP-induced platelet aggregation, light transmission aggregometry | human stable CAD patients on aspirin, platelets ex vivo | 0.05 mg/kg, 120 min post dose, together with: 20 µM ADP | relative to: placebo difference | inhibition of platelet aggregation | 13.4%
c1ccc(-c2n[nH]cc2-c2ccnc3ccccc23)nc1 | kinase binding, competitor, MIB/MS competition, item: SCH9 | Candida albicans cell lysate | 100 nM | relative to: DMSO | log2 fold change | 1.24
NC(=O)c1cnc2[nH]ccc2c1N[C@@H]1[C@@H]2CC3C[C@H]1C[C@@](O)(C3)C2 | regulatory T cells, flow cytometry | Caucasian humans, peripheral blood | 200 mg single dose | relative to: baseline | percent change | -0.13%
Nc1nc2c(ncn2[C@@H]2O[C@H](COP(=O)(O)OP(=O)(O)O)[C@@H](O)[C@H]2O)c(=O)[nH]1 | binding, MIDAS equilibrium dialysis LC-MS | A2AR-BRIL thermostabilized | concentration not given | relative to: no-protein control | log2 fold change | -0.922
CC(C)[C@H](C(=O)Nc1ccc(C(=O)NO)cc1)c1ccccc1 | MRI volumetry | human, left parieto-occipital meningioma | dose not given, day 2790 post-treatment |  | tumour volume | 0.574 cm³
NC(=O)NCCC(=O)O | binding, MIDAS equilibrium dialysis LC-MS | A2AR-BRIL thermostabilized | concentration not given | relative to: no-protein control | log2 fold change | -0.711
O=C(O)CNC(=O)C(CS)Cc1ccccc1 (stereo not drawn) | LC-MS/MS, item: extracellular Met-enkephalin | mouse striatal brain slices | 10 µM, 20 min, together with: 50 mM KCl |  | Met-enkephalin concentration | 13300 pM and 12300 pM and 28500 pM and 8740 pM and 823 pM and 76700 pM and 11000 pM and 5470 pM
CCOCc1nc(O)c(-c2nnc(Cc3ccc(Cl)cn3)o2)c(O)c1-c1c(OC)cccc1OC |  | instrumented anaesthetised rat | intravenous infusion, 1 µg/kg/min for 15 min, 15 min | relative to: baseline | SV change | 6 ± 0.6%
O=C(CO)N[C@H]1[C@H]([C@H](O)[C@H](O)CO)O[C@](O)(C(=O)O)C[C@@H]1O | binding, MIDAS equilibrium dialysis LC-MS | A2AR-BRIL thermostabilized | concentration not given | relative to: no-protein control | log2 fold change | -0.155
OC(CCN1CCCCC1)(c1ccccc1)C1CC2C=CC1C2 (stereo not drawn) | resting-state EEG | healthy elderly humans | oral, 2 mg, eyes closed, LS mean | relative to: baseline | change in EEG Beta2-power Pz-O1 | -6.3%
COc1nnc2ccc(N3CCC(c4ccc(OCCN5CCN(C)C(=O)[C@H]5C)cc4)CC3)nn12 |  | human patients | 10 mg twice daily, 2-fold above baseline, monotherapy and combination cohorts |  | time above HEXIM1 threshold | 0.28 h
Cc1coc([C@H]2C[C@H]3[C@@H](CF)SC(N)=N[C@@]3(c3ccc(F)cc3F)CO2)n1 | item: Aβx-40 | wild-type mouse, brain | subcutaneous, 80 mg/kg, 5 h |  | brain Aβ40 level | 1 ng/g
Nc1nc2c(ncn2[C@@H]2O[C@H](COP(=O)(O)O)[C@@H](O)[C@H]2O)c(=O)[nH]1 | binding, MIDAS equilibrium dialysis LC-MS | A2AR-BRIL thermostabilized | concentration not given | relative to: no-protein control | log2 fold change | -0.139
COc1cc(Nc2ncc3c(n2)-c2ccc(Cl)cc2C(c2c(F)cccc2OC)=NC3)ccc1C(=O)O |  | mouse, KT-10 Wilms tumour xenograft | 20.8 mg/kg | direction not given | median response score | 10

Structure (SMILES) | test | system | setting | how to read | measurement | value
Cn1cc([C@H]2C[C@H]3CSC(N)=N[C@@]3(c3ccc(F)cc3F)CO2)cn1 | item: Aβx-40 | Mus musculus wild-type, cerebrospinal fluid | subcutaneous, 3 mg/kg, 9 h |  | Aβ40 level | 1.27 ng/mL
COc1ccc(-c2cncc(N[C@@H](C)c3cccc(NC(=O)c4cncc(C)c4)c3)n2)cc1OC | item: rno-miR-323-3p | rat SU5416/hypoxia model, lung | dose not given, unit not given | relative to: SU5416/hypoxia vehicle | delta delta Ct | -0.37
N#Cc1ccc2c(c1)[C@H]1CCCN(C(=O)c3ccc4[nH]cnc4c3)[C@H]1C2 |  | human, urine | 360 mg, 336 h, day 14 over day -1 | relative to: placebo and baseline | total urinary corticosteroids | 143 % change
COc1ccc2c(c1)c(CC(=O)O)c(C)n2C(=O)c1ccc(Cl)cc1 | DPPH | methanol | concentration not given, 30 min |  | DPPH radical scavenging | 20.3 ± 0.73%
CC(C)NCC(O)c1ccc(O)c(O)c1 (stereo not drawn) |  | ventricular cardiomyocytes, C57BL/6 mouse | dose not given, 0.664 s |  | sarcomere length | 1.72 µm
CC(C)=CC(=O)O | binding, MIDAS equilibrium dialysis LC-MS | A2AR-BRIL thermostabilized | concentration not given | relative to: no-protein control | log2 fold change | -0.286
CC1=NN(c2ccccc2)C(=O)C1 | Y-maze | Rattus norvegicus, MCAO/R model | concentration not given, day 21 post-stroke |  | spontaneous alternation rate | 70.2%
N#Cc1ccc2c(c1)[C@H]1CCCN(C(=O)c3ccc4[nH]cnc4c3)[C@H]1C2 | item: FPG | human | 240 mg once daily, day 28, adjusted mean |  | change from baseline | 6.8 mg/dL
C[C@H]1O[C@@H](O[C@H]2CC[C@@]3(C)[C@@H](CC[C@]4(C)[C@@H]3C=C[C@]35OC[C@@]6(CCC(C)(C)C[C@H]63)[C@@H](O)C[C@]54C)[C@]2(C)CO)[C@H](O)[C@@H](O[C@@H]2O[C@H](CO)[C@@H](O)[C@H](O)[C@H]2O)[C@H]1O | H&E staining | chronic-plus-binge ethanol mice | dose not given, low dose |  | adipose area | 21.3% and 23.2% and 20.6% and 23.7%
Cc1cc([C@H]2C[C@H]3[C@@H](C)SC(N)=N[C@@]3(c3ccc(F)cc3F)CO2)on1 | item: Aβx-40 | Mus musculus wild-type, cerebrospinal fluid | subcutaneous, 50 mg/kg, 9 h |  | Aβ40 level | 0.55 ng/mL
C[C@@H](NC(=O)N1C(=O)[C@H](Cc2ccnc(N)c2)[C@H]1C(=O)O)C1CCCCC1 |  | human | iv infusion, 0.3 mg/kg/h, 24 h | relative to: baseline | time to ACT Emax | 60 h
OC[C@H]1O[C@@H](n2cnc3c(O)nc(O)nc32)[C@H](O)[C@@H]1O | binding, MIDAS equilibrium dialysis LC-MS | A2AR-BRIL thermostabilized | concentration not given | relative to: no-protein control | log2 fold change | -0.296
O=C(O)CNC(=O)Cc1ccccc1 |  | ventricular cardiomyocytes, C57BL/6 mouse | dose not given, 0.5 s |  | sarcomere length | 1.64 µm
CO[C@H]1CC[C@H](N2C(=O)CNc3ncc(-c4ccc(C(C)(C)O)nc4)nc32)CC1 | flow cytometry | stimulated B cells, human, blood | 45 mg single dose, 5 h, median | relative to: baseline | pS6RP change from baseline | -73.5%
O=C1O[C@H]([C@@H](O)CO)C(O)=C1O |  |  | 1 mg/mL, 60 min |  | DPPH radical scavenging | 82.3%
N#Cc1ccn2c(-c3ccncc3)c(-c3ccc(F)cc3)nc2c1 | kinase binding, competitor, MIB/MS competition, item: ENV7 | Candida albicans cell lysate | 10 µM | relative to: DMSO | log2 fold change | -0.078
CN(CC(=O)O)C(=N)N | binding, MIDAS equilibrium dialysis LC-MS | A2AR-BRIL thermostabilized | concentration not given | relative to: no-protein control | log2 fold change | -0.159
COc1cccc2c1C(=O)c1c(O)c3c(c(O)c1C2=O)C[C@@](O)(C(=O)CO)C[C@@H]3O[C@H]1C[C@H](N)[C@H](O)[C@H](C)O1 | organoid viability, CellTiter-Glo 3D | sample A colorectal cancer organoid, human | 6 days |  | IC50 | 4.63 nM
Cc1cc([C@H]2C[C@H]3[C@@H](CF)SC(N)=N[C@@]3(c3ccc(F)cc3F)CO2)on1 | item: Aβx-40 | Mus musculus wild-type, cerebrospinal fluid | subcutaneous, 30 mg/kg, 1 h |  | Aβ40 level | 0.79 ng/mL
C[C@H]1C[C@H]2CSC(N)=N[C@@]2(c2nc(NC(=O)c3ccc(OC(F)F)cn3)cs2)CO1 | item: Aβx-40 | healthy adults, plasma | 40 mg single dose, 4 h post-dose | relative to: placebo | percent change from baseline | -39.6%
CC1(C)C(/C=C/C=C/C=C/C=C2\N(CCCCS(=O)(=O)O)c3ccc4ccccc4c3C2(C)C)=[N+](CCCCS(=O)(=O)[O-])c2ccc3ccccc3c21 |  | mouse MMTV-PyMT mammary tumour model | dose not given, 20 days post-surgery, after image-guided surgery |  | recurrent tumour volume | 159 mm³
N#Cc1ccc2c(-c3ccncc3)c(-c3ccc(F)cc3)nn2c1 | kinase binding, competitor, MIB/MS competition, item: GIN4 | Candida albicans cell lysate | 1 µM | relative to: DMSO | log2 fold change | -0.0218
CSCCNc1nc(SCCC(F)(F)F)nc2c1ncn2[C@@H]1O[C@H](COP(=O)(O)OP(=O)(O)C(Cl)(Cl)P(=O)(O)O)[C@@H](O)[C@H]1O | light transmittance aggregometry | human patients, platelet-rich plasma | dose not given, 3 h, together with: ADP 20 µM | relative to: patients | patients with IPA above 80% | 2.6%
OCC(O)CO |  | female Slc25a13-/- Gpd2-/- mouse | drinking water, 5% w/v, 2 days |  | plasma FGF21 | 1230 pg/mL and 549 pg/mL
Cc1n[nH]c2ccc(-c3cc(OC[C@@H](N)Cc4ccccc4)cnc3-c3ccoc3)cc12 | kinase binding, competitor, MIB/MS competition, item: CKA1 | Candida albicans cell lysate | 100 nM | relative to: DMSO | log2 fold change | -0.241

A few entries again:
Structure (SMILES) | test | system | setting | how to read | measurement | value
Cn1cc([C@H]2C[C@H]3CSC(N)=N[C@@]3(c3ccc(F)cc3F)CO2)cn1 | item: Aβx-40 | Mus musculus wild-type, cerebrospinal fluid | subcutaneous, 3 mg/kg, 9 h |  | Aβ40 level | 1.27 ng/mL
CSCCNc1nc(SCCC(F)(F)F)nc2c1ncn2[C@@H]1O[C@H](COP(=O)(O)OP(=O)(O)C(Cl)(Cl)P(=O)(O)O)[C@@H](O)[C@H]1O | light transmittance aggregometry | human patients, platelet-rich plasma | dose not given, 3 h, together with: ADP 20 µM | relative to: patients | patients with IPA above 80% | 2.6%
O=C(O)CNC(=O)C(CS)Cc1ccccc1 (stereo not drawn) | LC-MS/MS, item: extracellular Met-enkephalin | mouse striatal brain slices | 10 µM, 20 min, together with: 50 mM KCl |  | Met-enkephalin concentration | 13300 pM and 12300 pM and 28500 pM and 8740 pM and 823 pM and 76700 pM and 11000 pM and 5470 pM
